# Measurements gathered from unrelated publications.
# Each numbered part is a random draw from the data of one study; scales do not carry over between parts. Substitutions count along the parent as printed.

# Set 1
# Target: CCNB3, cyclin fold, Cln2 fusion (human)
# Method: yeast growth competition, sequencing
# Matrix: yeast
# Notes: weak parent motif
# Baseline: not given
# Direction: higher = stronger binding
# Starting sequence: SLBP docking peptide (human); ARYKRKLLINDFG
Change,normalised enrichment score
ARYKRKLLINDAG [F12A],0.202
ARYKRKWLINDFG [L7W],-0.299
ARYKRKLRINDFG [L8R],-0.422
DRYKRKLLINDFG [A1D],0.667
ARYKRKLLINDFI [G13I],-0.072
ARHKRKLLINDFG [Y3H],0.0765

# Set 2
# Target: Phosphate system positive regulatory protein PHO4, full length, GST-tagged (PHO4, Saccharomyces cerevisiae, UniProt P07270, residues 1-312)
# Method: competition protein-binding microarray
# Form: double-stranded DNA, one strand shown
# Matrix: in vitro
# Tested at: 2 µM
# Notes: whole 60-bp probe, lowest competitor level
# With: Cbf1 competitor, 0.05 µM
# Direction: higher = stronger binding
# Residues (chain): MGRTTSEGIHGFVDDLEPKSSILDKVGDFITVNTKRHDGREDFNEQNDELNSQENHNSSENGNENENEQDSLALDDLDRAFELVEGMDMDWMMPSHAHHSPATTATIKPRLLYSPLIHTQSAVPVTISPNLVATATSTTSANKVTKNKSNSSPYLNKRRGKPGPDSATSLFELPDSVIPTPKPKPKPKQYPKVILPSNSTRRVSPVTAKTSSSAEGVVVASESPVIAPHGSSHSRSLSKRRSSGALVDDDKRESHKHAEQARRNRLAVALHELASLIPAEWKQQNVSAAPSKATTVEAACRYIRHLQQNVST
Oligonucleotide,fluorescence intensity
GAACAATGGAATAAGCTCGTGAGATTCCTTAACTTTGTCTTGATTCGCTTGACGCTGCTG,5860 a.u.
TAATTTCGAAGTACCTATATTTTTAACCAATCTCGGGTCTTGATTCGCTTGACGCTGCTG,2560 a.u.
CGTCCTAGTGATTTTCACGTGTTGTCCATGAGGAAGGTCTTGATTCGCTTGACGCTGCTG,14700 a.u.
AAGGCGTCTTGTCACCACGTCTTCCAGTTATGGTCTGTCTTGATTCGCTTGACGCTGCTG,5330 a.u.
CTTCTGTAAATTTTTCACGTGCCATGACGCGCCCCGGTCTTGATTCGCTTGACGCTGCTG,17100 a.u.
AAAGCGGTAATTTGCGTGGTGGGTGCAGATATCTATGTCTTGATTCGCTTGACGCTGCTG,5690 a.u.
CTTCTGTAAATTTGTTCCGTGGGTGGACGCGCCCCGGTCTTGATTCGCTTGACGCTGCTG,4840 a.u.
CTCTTTTCGCGGAGCCGCATGCAAGGCTACATTAAAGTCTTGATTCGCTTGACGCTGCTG,8170 a.u.
TTTTTCCAAGAGCTTCATATGCAAGCCCGAATCATTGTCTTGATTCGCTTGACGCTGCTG,3010 a.u.
CCTTTAGCACATAACCATGTGATTTATCCTCGCTTAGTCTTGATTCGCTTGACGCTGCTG,8070 a.u.
TGCGCAACAACTTGGAGGGTGGGTGTATGTCTAGAAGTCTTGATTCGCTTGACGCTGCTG,4040 a.u.

# Set 3
# Target: Histone acetyltransferase KAT6A, both winged helices, GST fusion (KAT6A, Homo sapiens, UniProt Q92794, residues 1-181)
# Method: protein binding microarray
# Form: double-stranded DNA, one strand shown
# Matrix: in vitro
# Tested at: not given
# Notes: 8-mer, flanks averaged, mean of 2 arrays, mostly near background
# Baseline: not given
# Direction: higher = stronger binding
# Construct (chain): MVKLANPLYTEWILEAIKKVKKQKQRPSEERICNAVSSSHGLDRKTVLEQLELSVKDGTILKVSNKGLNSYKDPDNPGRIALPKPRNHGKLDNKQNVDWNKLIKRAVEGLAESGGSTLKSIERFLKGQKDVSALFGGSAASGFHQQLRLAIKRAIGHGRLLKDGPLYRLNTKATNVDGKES
Oligonucleotide,E-score
GCGTATCC,0.191
AACGGGTC,0.236
CGCGAAGC,0.284
ACTTACCA,-0.141
GAGTTGAA,-0.118
GTCATGGA,-0.101
CTGGAAGC,-0.093
CTCCAAAG,-0.119
ATAAGCTG,-0.0259
GAGCGAGA,-0.0085

# Further values, each from its own experiment
Substance,target,assay,test system,setting,how to read,quantity,result
"PhoQ, residues 284 288 289 292 302 303 NLALSC","PhoP, residues 12 14 15 18 19 HLGGL (Escherichia coli, UniProt P23836)","Sort-seq, item: YFP reporter",E. coli,"PhoQ-PhoP variant library, with: 10 µM Mg2+","baseline: high Mg2+ state, higher = stronger signaling",fold induction,1.14

# For quick reference, copied from above (set 1):
Change,normalised enrichment score
ARYKRKLRINDFG [L8R],-0.422
ARYKRKWLINDFG [L7W],-0.299
